# Assay results gathered from unrelated publications.
# Parts stem from different laboratories: compare values within a part only.

# Sample 1
# Target: Centromere-binding protein 1, full length, His-tagged (CBF1, Saccharomyces cerevisiae, UniProt P17106, residues 1-351)
# Sequence of UniProt P17106 (whole entry, looked up): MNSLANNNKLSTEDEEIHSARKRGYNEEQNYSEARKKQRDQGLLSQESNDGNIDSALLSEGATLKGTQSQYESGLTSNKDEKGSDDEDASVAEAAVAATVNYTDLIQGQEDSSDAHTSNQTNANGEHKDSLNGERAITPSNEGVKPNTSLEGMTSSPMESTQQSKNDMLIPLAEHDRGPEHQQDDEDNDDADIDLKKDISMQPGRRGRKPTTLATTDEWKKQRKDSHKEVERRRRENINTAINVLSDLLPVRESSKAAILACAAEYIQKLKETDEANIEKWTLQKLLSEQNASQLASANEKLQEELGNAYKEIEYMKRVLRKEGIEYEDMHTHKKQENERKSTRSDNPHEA
# Technique: competition protein-binding microarray
# Molecule type: double-stranded DNA, one strand shown
# Sample: in vitro
# Concentration: 2 µM
# Setting: whole 60-bp probe, lowest competitor level
# Together with: Pho4 competitor, 0.05 µM
# Reading: higher = stronger binding
Strand,fluorescence intensity
AACAAGTATTGAATGCACACGCAAATAGCTTAGGCCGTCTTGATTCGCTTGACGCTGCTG,79.8 a.u.
AGAAAAACCAGCCATCGCGTGTGTTTGGAGAGCTGAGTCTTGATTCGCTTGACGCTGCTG,49.8 a.u.
ATAAAGTGCGTAATGTGCGTGCTAAAAAAGCTCACTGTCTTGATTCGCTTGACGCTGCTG,104 a.u.
AAAGCGGTAATTTGATCGGTGGGTGCAGATATCTATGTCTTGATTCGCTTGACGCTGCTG,89.4 a.u.
CTAACGAAGGTTTGAAATGTGGGTGACAAGCCAAGTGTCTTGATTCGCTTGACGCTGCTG,79.4 a.u.
CTTTCCCGATCTTTTCACGTGGGATTAGCACATTTGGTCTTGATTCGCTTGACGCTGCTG,596 a.u.
CGTCCTAGTGATTGTCCTGTGGGTGCCATGAGGAAGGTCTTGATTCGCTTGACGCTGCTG,84.9 a.u.
TAACTAATCAAATGTATCGTGACGGGGTGTTGCATCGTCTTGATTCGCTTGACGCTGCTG,132 a.u.
AAAGTACACAGGGTCCATGTGCTACACATACGAAGAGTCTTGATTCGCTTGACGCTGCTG,93.9 a.u.
CATACCCAACCTTGTCCCGTGGGTGAAGATATTTGTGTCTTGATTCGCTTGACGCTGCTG,117 a.u.
CCAAGCAGCAGTTTACGCGTGTCCAAAAAATGCTGTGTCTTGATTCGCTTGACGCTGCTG,92 a.u.
CGGGGTTAAGTTTGATTTGTGGGTGGCTTGCAGCAGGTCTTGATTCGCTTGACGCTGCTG,68 a.u.
CTCGAATCGAAAACAAACGTGGCCGTTGGTCCATCAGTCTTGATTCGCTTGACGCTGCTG,77.3 a.u.
AGTCTTGTCTGAAACCATGTGGGACACCAAGAAGGAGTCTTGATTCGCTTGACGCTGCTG,78.5 a.u.
CAGGGCATCTCGAGCATCGTGGAGGAGATCCCTGTCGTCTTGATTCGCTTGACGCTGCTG,47.6 a.u.
GCCTTCGACAAAAAGGGCGTGCAAACTCAACAGCGGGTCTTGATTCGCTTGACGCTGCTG,80.5 a.u.
TACTTGGTAAGTACCCACGCAGCCAATAGTGTCTCGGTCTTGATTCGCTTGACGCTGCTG,53.9 a.u.
AAATTACTAAGTTGGCCAGTGGGTGACGCCGTATGAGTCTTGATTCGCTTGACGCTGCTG,62.1 a.u.

# Sample 2
# Target: RNA binding protein fox-1 homolog 2, RRM domain, GST-SBP tag (RBFOX2, Homo sapiens, UniProt O43251-10, residues 100-194)
# Technique: RNA Bind-n-Seq
# Molecule type: RNA
# Sample: in vitro
# Concentration: 365 nM
# Setting: natural RNA segment, single round, ends assumed
# Baseline: no-protein control
# Reading: higher = stronger binding
# Residues (chain): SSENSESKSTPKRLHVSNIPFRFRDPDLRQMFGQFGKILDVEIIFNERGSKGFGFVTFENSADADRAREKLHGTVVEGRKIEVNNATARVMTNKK
Strand,RBNS enrichment (R)
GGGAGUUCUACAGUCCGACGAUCGGAGAUCAGCCGCCCCCACCCACACACACACCAAGAAAAGGCGGGGUGAGGGAGGGAUCUAAGUAGAAAAAGAUGAGUUCUGAUCUUCUUUAUCUCUUCUAAACUGUGUUUGGAAUUCUCGGGUGCCAA,0.401
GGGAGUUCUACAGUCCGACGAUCCUCAAACCCGGGGCGGAGGAUUCCAGGCAGGCUCUAGGAGUCAGGUGUCCGUUUGCUGCUAUCAGUGAGUGGGGGCCAUUGUUUUUUGUUUGUUUGUUUGUUUGUUUGUUUGGAAUUCUCGGGUGCCAA,24.7
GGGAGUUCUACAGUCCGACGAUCUCUGGGGAAGAAAAGUUAAUGAGGUUUUAAAAAUCAGGUCUUGUCGUGUGGGGAGCUUGCUCCCCCAGGGGAGAGGCCCCUUUACCUCAGUGGAUCCUGUUAAGGAGUGCUGGAAUUCUCGGGUGCCAA,0.279
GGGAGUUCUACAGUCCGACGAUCAGCACCCUGGAGAGUGCACAUGCCCCUUGGUCCUGGCAGGGCGCCAAGUCUGGCACCAUGUUGGCCUCUUCAGGCCUGCUAGUCACUGGAAAUUGAGGUCCAUGGGGGAAUGGAAUUCUCGGGUGCCAA,0.334
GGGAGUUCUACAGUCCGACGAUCUGGGAGACCAGGACAGAUGAGAAGGAGCAGAAGAGCCCUGUGCCCAGAAGACCCAACUGGUGCCAAGGAAUCCCAGCAUGGACAGGCAGGGACCUGUUUCCCAAGAAGAGUGGAAUUCUCGGGUGCCAA,1.81
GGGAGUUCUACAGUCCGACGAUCAGUUUAACAUCUUUUAAAAUUUGAACACUACGUAGUAGGGUGACUAAUUUUUGAAGAAUAUCACAAAGUUGCUAUUAUGGUAAACUAGUUUCACACUUCAGCAAACAUAAUGGAAUUCUCGGGUGCCAA,0.279
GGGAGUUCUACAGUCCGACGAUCGGUACACAUUAGAGUGUCUUUGAGUUCAACAAGUUGGUACUGUUGCAAACACCUUCUGAAUUGCCAGCGCCCGGGUUUUUAUGUAAAAAUAGAGUGGCUAUGGAAGUUACUGGAAUUCUCGGGUGCCAA,0.828
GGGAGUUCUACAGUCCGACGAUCAAACUAAAAGGCCUGGCCCCAUUCUGGAAAAGGCAAAGCUGCAUGAGACACAGCCUUCUGCCUCCUCGCCUCUCCUGGACUGGCUUCCUCUUUGAGAAAAUGCACAAAGCUGGAAUUCUCGGGUGCCAA,0.503
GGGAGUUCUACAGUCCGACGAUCCUGCCUGGGUCUCUGAGGAAGGAGGGGUCCUGCUUUCUCACCCAGCUCACCCCUUUGGUGACUCAGAGUCCUUCUCAGAAGGAAACCCUGACUCCUGGGCCAUUUCCUAAUGGAAUUCUCGGGUGCCAA,0.149

# Sample 3
# Target: RING finger protein unkempt homolog, zinc fingers 1-6, GST-SBP tag (UNK, Homo sapiens, UniProt Q9C0B0, residues 30-357)
# Sequence of UniProt Q9C0B0 (30-357, looked up): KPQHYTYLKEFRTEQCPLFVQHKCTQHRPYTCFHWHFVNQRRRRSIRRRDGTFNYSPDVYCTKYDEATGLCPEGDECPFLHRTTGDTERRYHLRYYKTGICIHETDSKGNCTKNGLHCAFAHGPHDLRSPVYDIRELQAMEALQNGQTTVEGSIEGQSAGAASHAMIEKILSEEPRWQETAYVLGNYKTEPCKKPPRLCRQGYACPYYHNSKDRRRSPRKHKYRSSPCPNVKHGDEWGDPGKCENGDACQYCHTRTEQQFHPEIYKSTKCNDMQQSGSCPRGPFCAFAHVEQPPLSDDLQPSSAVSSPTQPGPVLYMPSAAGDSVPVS
# Technique: RNA Bind-n-Seq
# Molecule type: RNA
# Sample: in vitro
# Concentration: not given
# Setting: RNA with constant flanks, ends assumed
# Baseline: input RNA pool
# Reading: higher = stronger binding
Strand,bound/input enrichment
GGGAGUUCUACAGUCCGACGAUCGUUCUUUUAUUACUUUCAUCUAUACACUUCCAGUGUCGAAGGCUGGACAGAUCUGCUCAUUUCCGCACCUUGGCAAUUAAACAGAAUCCCCUUCUAGCAGAAGCCUAUUCGAAUUUGGGACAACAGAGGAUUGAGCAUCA,0.318 ratio
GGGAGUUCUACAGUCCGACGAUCUUACGCAUUGGAGUUGAUAACCACGUGUUACCCUUGGACUGUGUUACUCUGCAGACGUUCUCCGCAAAGUGCUUAGGACCCUUCGAUGAGUGGGAAAGCCGGCUAAGGGUGGCAAAGGAGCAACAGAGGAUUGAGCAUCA,0.123 ratio
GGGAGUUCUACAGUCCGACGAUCGACUGGGAGCAGACUCAGAAAAUCUACAAUUGUCACGUGCUGCUGAACAGCAAAGGGGCAGCCGUGGCCACUUACAGGAAGACACAUCUGUGUGACGUAGAGAUUCCAGGGCAGGGGCCUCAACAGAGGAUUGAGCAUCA,0.249 ratio
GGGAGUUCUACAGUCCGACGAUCCUGAGAAUCUAUCUUGAUGAAAGGAGAGAUGUCUUGGAUGACCUUGUAACCUUGCAUAAUUUCCGAAAUCAGUUCUUGCCGAAUGCACUGAGAGAAUUUUUUCGUCAUAUUCAUGCCCCUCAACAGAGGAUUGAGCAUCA,0.152 ratio
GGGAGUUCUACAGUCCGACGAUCGAGAGAAUGUGUGUGUGUGUGUGUGUGCGCGUGCGUGAGAGGAUAAACUUUAACCUUCCCACCCGUUUAUUCUUUUACUUUAGUGUUUUCUUAGUUAGAAAACCACUAUUAACAUUAAAUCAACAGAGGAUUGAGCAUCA,0.891 ratio
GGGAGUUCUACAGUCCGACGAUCACUCAGAAGCCGAUUCAUCAGCUUUUUGAUUACAUCUGUGGAGUAAGCACAGGGGCCAUAUCCGCAUUUAUGCUGGGAUUGUUUCACAUGCCGCUGGAUGAAUGUGAGGAACUCUAUCGACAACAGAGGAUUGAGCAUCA,0.137 ratio
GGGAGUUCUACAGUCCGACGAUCACACCCUUGGCCAGCCUUUCUCCUGAAUAUCAGCUACCAAGAUCAGUACCAGUGGUGCCGUCUUUUGCCGCCAAUGACAGAGCAGAUAAAAAUGCUGCUGCCUAUUUUGAGGGUCAUCAUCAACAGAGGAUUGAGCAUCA,0.115 ratio
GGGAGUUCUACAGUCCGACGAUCACAGGUCAAGUGGUAGCCAUGAAAAAAAUCAGACUAGAAAGUGAAGAGGAAGGGGUUCCCCGUACUGCAAUUCGGGAAAUUUCUCUAUUAAAGGAACUUCGUCAUCCAAAUAUAGUCAGUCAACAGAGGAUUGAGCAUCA,0.297 ratio
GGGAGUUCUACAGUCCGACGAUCGCCAUCAUCCCCUAUAUCCCCACUCUCAUCACGCAGCUCACACAGAAGCUGCUGGCUGUCCGUAAGAAUCCCAGUAAACCUCAUUUCAAUCACUACAUGUUUGAAGCAAUAUGCUUGUCUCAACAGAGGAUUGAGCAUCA,0.296 ratio
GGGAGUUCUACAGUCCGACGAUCCAGAAGGACCUCACGGAGUCUAAGGGAAAAAUAGUCCAGCUGGAGGGAAAGCUUGUUUCAACCGAGAAAGAAAAGAUCGAUGAAAAAUGUGAAACAGAAAAACUCUUAGAAUACAUCCAACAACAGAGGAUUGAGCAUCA,0.304 ratio
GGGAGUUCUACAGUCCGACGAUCAAUAAACAGGAUAUGAAAGGGUGUAUGACAGCAGCUGAAAUCUCGAAAUACCUCACCCUCCGUUCAAUUAAGGAUCAUCCAUGGCACAUUCAAUCCUGCUGUGCUCUCACAGGAGAAGGGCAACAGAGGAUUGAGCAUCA,0.187 ratio

# Sample 4
# Target: Sal-like protein 4, full length isoform B (SALL4, Homo sapiens, UniProt Q9UJQ4-2, residues 1-616)
# Technique: universal PBM
# Molecule type: double-stranded DNA, one strand shown
# Sample: in vitro
# Concentration: not given
# Setting: 8-mer, flanks averaged, mean of replicates
# Reading: higher = stronger binding
Strand,E-score
AGTCGTAC,-0.0823
CCACCTAA,-0.00301
ACCCTCAC,-0.134
ACCGTCAG,-0.145
CTGAGAAA,-0.0869
AGAAATGG,0.0636
CTGATTAC,0.0839
GGATCGGA,-0.234
CCCTTTTA,0.0911
ACGTGGGG,-0.0942
GTTGTACA,0.193
CTGCACAC,-0.057
ACACCCTG,-0.259
GGATGAAC,0.00321
AAATTCAC,0.139
ATTGTCGA,0.0942
CCCACGGC,-0.255
AGAACGGG,-0.0752
GGTGAGAC,-0.226
CTAAGGAA,-0.0224
CGCAACGA,-0.151

# Some of these lines once more (sample 1):
Strand,fluorescence intensity
AGAAAAACCAGCCATCGCGTGTGTTTGGAGAGCTGAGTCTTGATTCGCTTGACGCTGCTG,49.8 a.u.
ATAAAGTGCGTAATGTGCGTGCTAAAAAAGCTCACTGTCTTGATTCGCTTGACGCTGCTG,104 a.u.
AAAGCGGTAATTTGATCGGTGGGTGCAGATATCTATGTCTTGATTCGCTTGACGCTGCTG,89.4 a.u.
CTAACGAAGGTTTGAAATGTGGGTGACAAGCCAAGTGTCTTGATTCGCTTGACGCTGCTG,79.4 a.u.
CTTTCCCGATCTTTTCACGTGGGATTAGCACATTTGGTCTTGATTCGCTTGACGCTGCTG,596 a.u.
